Assay results collected from several papers.
Lines come from different studies, so protocols differ. ± gives the spread as reported.

CC[C@H](C)[C@H](NC(=O)[C@H](CC(N)=O)NC(=O)[C@H](CCCCN)NC(=O)[C@H](Cc1ccccc1)NC(=O)[C@H](Cc1ccccc1)NC(=O)[C@H](Cc1c[nH]cn1)NC(=O)[C@@H](NC(=O)[C@@H](NC(=O)[C@@H]1CCCN1C(=O)[C@@H](N)CC(N)=O)C(C)C)C(C)C)C(=O)N[C@H](C(=O)N[C@H](C(=O)N[C@@H](C)C(=O)O)[C@@H](C)O)C(C)C
EC50 (T cell clone Ob.2G9; T cell proliferation, agonist, [3H]thymidine incorporation; 72 h, peptide-pulsed APC, together with: EBV-transformed B cells DR2/DQ6 as APC): > 50 µM

CCOC(=O)CCCCC[C@@H]1NC(=O)[C@H]2CCCCN2C(=O)[C@H]([C@@H](C)CC)NC(=O)[C@H](Cc2c[nH]c3ccccc23)NC1=O
intracellular progranulin level (iPSC-derived neural progenitor cells; ELISA; 1 µM, 18 h; baseline: vehicle): ~1.4 fold increase

CC[C@H](C)[C@H](NC(=O)[C@H](CCC(=O)O)NC(=O)CNC(=O)[C@@H](NC(=O)[C@H](CC(C)C)NC(=O)[C@H](CC(C)C)NC(=O)[C@H](CC(C)C)NC(=O)[C@H](CC(C)C)NC(=O)[C@H](CS)NC(=O)[C@H](CO)NC(=O)[C@H](Cc1ccccc1)NC(=O)CNC(=O)[C@H](CCCNC(=N)N)NC(=O)[C@@H]1CCCN1C(=O)[C@H](C)NC(=O)[C@H](CCSC)NC(=O)CNC(=O)CNC(=O)[C@H](Cc1ccccc1)NC(=O)[C@H](CCCCN)NC(=O)[C@H](Cc1c(C)cc(O)cc1C)NC(=O)[C@H](N)CCCNC(=N)N)[C@@H](C)O)C(=O)N[C@@H](CC(=O)O)C(=O)N[C@@H](CC(C)C)C(=O)N1CCC[C@H]1C(=O)N[C@H](C(=O)N[C@@H](CCCCN)C(=O)N[C@@H](CCCNC(=N)N)C(=O)N[C@@H](CCCNC(=N)N)C(=O)N[C@@H](C)C(N)=O)C(C)C
protein level (HT-22; western blot, refers to: MTCO1; 10 µM, 24 h, together with: amyloid beta 42 2 µM; baseline: HNG plus SS-31): 111%

CSCC[C@H](NC(=O)[C@H](CCC(N)=O)NC(=O)[C@H](CCCCN)NC(=O)[C@H](CCCNC(=N)N)NC(=O)[C@H](Cc1ccc(O)cc1)NC(=O)[C@H](CCCNC(=N)N)NC(=O)[C@H](CO)NC(=O)[C@H](Cc1ccc(O)cc1)NC(=O)[C@H](CO)NC(=O)[C@H](CC(=O)O)NC(=O)[C@@H](NC(=O)[C@@H](N)Cc1ccccc1)[C@@H](C)O)C(=O)N[C@@H](C)C(=O)N[C@H](C(=O)N[C@@H](CCCCN)C(=O)N[C@@H](CCCCN)C(=O)N[C@@H](Cc1ccc(O)cc1)C(=O)N[C@@H](CC(C)C)C(=O)N[C@@H](C)C(=O)N[C@@H](C)C(=O)N[C@H](C(=O)N[C@@H](CC(C)C)C(=O)NCC(=O)N[C@@H](CCCCN)C(=O)N[C@@H](CCCNC(=N)N)C(=O)N[C@@H](Cc1ccc(O)cc1)C(=O)N[C@@H](CCCCN)C(=O)N[C@@H](CCC(N)=O)C(=O)N[C@@H](CCCNC(=N)N)C(=O)N[C@H](C(=O)N[C@@H](CCCCN)C(=O)N[C@@H](CC(N)=O)C(=O)N[C@@H](CCCCN)C(N)=O)C(C)C)C(C)C)C(C)C
CART-induced ERK activation (differentiated PC-12; antagonist, refers to: phospho-ERK; 1 µM, together with: CART 55-102 or 61-102 0.3 µM): inhibited

CC[C@H](C)[C@H](NC(=O)[C@H](Cc1ccccc1)NC(=O)[C@H](CC(=O)O)NC(=O)[C@H](CCCCN)NC(=O)[C@H](C)NC(=O)[C@H](CCCCN)NC(=O)[C@H](CC(N)=O)NC(=O)[C@H](CC(C)C)NC(=O)[C@H](Cc1c[nH]c2ccccc12)NC(=O)[C@H](CCC(=O)O)NC(=O)[C@H](CCCCN)NC(=O)[C@@H](NC(=O)CNC(=O)[C@H](C)N)[C@@H](C)O)C(=O)N[C@@H](CCCCN)C(=O)N[C@@H](CCC(=O)O)C(=O)N[C@@H](CCCCN)C(=O)NCC(=O)N[C@@H](CC(C)C)C(=O)NCC(=O)N[C@@H](CCSC)C(=O)N[C@@H](CC(C)C)C(=O)N[C@@H](CCCNC(=N)N)C(=O)N[C@@H](C)C(=O)N[C@@H](C)C(=O)N[C@@H](C)C(=O)N[C@@H](CC(N)=O)C(=O)N[C@@H](C)C(=O)N[C@@H](C)C(=O)N[C@@H](CC(C)C)C(=O)N[C@@H](CC(N)=O)C(=O)O
EC50 (HEK293 cells; intracellular calcium, FLIPR; 0.1% BSA): > 100 µM

CC(C)CC(O)(CC(C)C)c1cn(C(=O)N2CCCC2)nn1
protein level (mouse T-cells; SILAC proteomics, refers to: FDX1; 1 nM, 6 h, unit not given; baseline: DMSO): 1.01 ± 0.11

C[C@H](NC(=O)[C@H](CCCNC(=N)N)NC(=O)[C@H](CCC(=O)O)NC(=O)[C@H](CCCNC(=N)N)NC(=O)[C@H](CCCNC(=N)N)NC(=O)[C@@H](NC(=O)[C@H](CCCNC(=N)N)NC(=O)[C@H](C)NC(=O)[C@H](CCCNC(=N)N)NC(=O)[C@H](CCC(=O)O)NC(=O)[C@@H](N)CCCNC(=N)N)[C@@H](C)O)C(=O)N[C@@H](CCCNC(=N)N)C(=O)N[C@H](C(=O)N[C@@H](CCCNC(=N)N)C(=O)N[C@@H](CCC(=O)O)C(=O)N[C@@H](CCCNC(=N)N)C(=O)N[C@@H](C)C(=O)N[C@@H](CCCNC(=N)N)C(=O)N[C@H](C(=O)N[C@@H](CCCNC(=N)N)C(=O)O)[C@@H](C)O)[C@@H](C)O
expression level (A-375; RT-PCR and western blot, refers to: VEGF165b mRNA and protein; concentration not given): increased

COc1c(C)cc2c(c1OC)OCO2
GI50 (DU-145; cell growth or viability, MTT; 72 h): > 250 µM

CN1C(=O)C2(Cc3ccc(CC45SSC(CO)(C(=O)N4C)N(C)C5=O)cc3)SSC1(CO)C(=O)N2C (racemic)
mRNA level change (MCF7; microarray, refers to: CITED2; 600 nM, unit not given, together with: deferoxamine 300 µM; baseline: deferoxamine alone): -1.5

CCC[P+](c1ccccc1)(c1ccccc1)c1ccccc1
GI50 (DU-145; cell growth or viability, MTT; 72 h): 1.06 µM

CC/C=C\C/C=C\C/C=C\C/C=C\C/C=C\C/C=C\CCC(=O)Nc1ccn(C2OC(CO)C(O)C2(F)F)c(=O)n1 (centres unmarked)
CC50 (NCI-H322M; NCI60 screen): 46 µM

CC(C)C[C@H](NC(=O)[C@H](CO)NC(=O)[C@H](C)NC(=O)[C@@H]1CCCN1C(=O)[C@H](Cc1c[nH]c2ccccc12)NC(=O)[C@H](CS)NC(=O)[C@H](CCC(=O)O)NC(=O)[C@H](CC(=O)O)NC(=O)[C@H](CC(N)=O)NC(=O)[C@H](CC(C)C)NC(=O)[C@@H](NC(=O)CNC(=O)[C@H](CC(C)C)NC(=O)[C@H](CO)NC(=O)[C@H](C)NC(=O)[C@H](C)NC(=O)[C@H](C)NC(=O)CNC(=O)[C@H](CCC(=O)O)NC(=O)[C@H](CO)NC(=O)[C@@H]1CCCN1C(=O)[C@H](CC(C)C)NC(=O)[C@H](Cc1ccccc1)NC(=O)[C@H](CCC(N)=O)NC(=O)[C@H](CCC(=O)O)NC(=O)[C@H](CCCNC(=N)N)NC(=O)[C@H](CO)NC(=O)[C@@H](NC(=O)[C@H](C)NC(=O)[C@H](C)N)[C@@H](C)O)[C@@H](C)O)C(=O)O
EC50 (MELOE-1 36-44 specific CD8 T cell clone; TNFα production; cross-presentation, together with: mature dendritic cells): 0.013 µM

CCCc1cc(OC)c2c(c1)OCO2
GI50 (DU-145; cell growth or viability, MTT; 72 h): > 250 µM

N=C(N)NCCC[C@H](N)C(=O)NCC(=O)N[C@@H](CCC(=O)O)C(=O)O
adherent cell number (NIH 3T3 fibroblasts; peptide-functionalised PEG-glass; concentration not given, 4 h, serum-free, per 10× image): 20 ± 5.3

CC[C@@]1(O)C(=O)OCc2c1cc1n(c2=O)Cc2cc3cc(OC(=O)CCCC(=O)NCC(=O)N[C@@H](Cc4ccccc4)C(=O)N[C@@H](Cc4ccccc4)C(=O)N[C@@H](Cc4ccc(O)cc4)C(=O)NCCS)ccc3nc2-1
penetration depth (HepG2 spheroids; confocal microscopy; 100 µM, 6 h): ~50 µm

CCCCCCCC(=O)SCCC=CC1CC(=O)NCc2nc(cs2)C2=NC(C)(CS2)C(=O)NC(C(C)C)C(=O)O1 (centres unmarked)
GI50 (HLF; cell growth or viability): > 10 µM

CC[C@@H](C(=O)[C@@H](C)[C@@H](O)[C@H](C)[C@@H]1O[C@@H]([C@@H](CC)C(=O)O)CC[C@@H]1C)[C@H]1O[C@]2(C=C[C@H](NCc3ccc(F)cc3)[C@]3(CC[C@@](C)([C@H]4CC[C@](O)(CC)[C@H](C)O4)O3)O2)[C@H](C)C[C@@H]1C
selectivity ratio (HMLER CD24low/CD44high; cell viability, CellTiter-Blue; 72 h; baseline: IC50 HMLER CD24high/CD44low over CD24low/CD44high): 10.2

C=C1C(=O)O[C@H]2[C@H]1CCC(C)=C1[C@H](OC(=O)c3ccc(F)cc3)C[C@@](C)(O)[C@@H]12
CC50 (M9-ENL1 leukaemia cells; annexin V/7-AAD flow cytometry; 24 h, 5% human plasma): 14.7 µM

CCOC(=O)c1ccc(NC(=S)Nc2ccc3c(c2)C(C)(C)CC(C)(C)S3)cc1
EC50 (CAKI-1; cell growth or viability; 48 h): 7.28 µM

CCCCCCCCC[P+](c1ccccc1)(c1ccccc1)c1ccccc1
GI50 (T47D; cell growth or viability, MTT; 72 h): 0.023 µM

CSCC[C@@H](NC(=O)[C@@H](CC(C)C)NC(=O)CNC(=O)[C@@H](Cc1ccccc1)NC(=O)[C@@H](Cc1ccccc1)NC(=O)[C@@H](CCC(N)=O)NC(=O)[C@@H](CCC(N)=O)NC(=O)[C@H]1CCCN1C(=O)[C@@H](CCCCN)NC(=O)[C@H]1CCCN1C(=O)[C@H](N)CCCNC(=N)N)C(N)=O
EC25 (rat peritoneal mast cells; histamine release; 10 min, 37 °C, together with: 2 mM CaCl2): 29 ± 4.6 µM

C=CCc1cc(OC)c(OC)c(OC)c1OC
GI50 (T47D; cell growth or viability; 72 h): > 250 µM

CNC(=O)c1cc(Oc2ccc(NC(=O)c3cc(-c4cccc(COC(=O)CCC(=O)OC5OC6OC7(C)CCC8C(C)CCC(C5C)C68OO7)c4)ccn3)cc2)ccn1 (centres unmarked)
selectivity ratio (HepG2 and LO2; cell viability, MTT; 72 h; baseline: IC50 LO2 over IC50 HepG2): 6.5
